# Assay results collected from several papers.
# A part holds a random share of what one study measured. Positions count from the first letter of the parent shown.

# Block 1
# Target: CCNF, cyclin fold, Cln2 fusion (human)
# Technique: yeast growth competition, sequencing
# Matrix: yeast
# Setting: strong parent motif
# Relative to: not given
# Reading: higher = stronger binding
# Parent: RBL2 docking peptide (human); STTRRRLFVENDS
Substitution,normalised enrichment score
F8K,2.84
L7M,1.3
S13W,7.7
S1K,6.75
T2G,8.89
T2I,7.39
D12A,7.27
R5Q,1.1
V9H,8.31
T3A,8.18
R6W,1
R6N,3.41
N11S,8.05
R4W,3.6
E10Q,9.33
R5A L7A,-0.137

# Block 2
# Target: RING finger protein unkempt homolog, zinc fingers 1-6, GST-SBP tag (UNK, Homo sapiens, UniProt Q9C0B0, residues 30-357)
# Technique: RNA Bind-n-Seq
# Form: RNA
# Matrix: in vitro
# Tested at: not given
# Setting: RNA with constant flanks, human and mouse sites, ends assumed
# Relative to: input RNA pool
# Reading: higher = stronger binding
# Construct (chain): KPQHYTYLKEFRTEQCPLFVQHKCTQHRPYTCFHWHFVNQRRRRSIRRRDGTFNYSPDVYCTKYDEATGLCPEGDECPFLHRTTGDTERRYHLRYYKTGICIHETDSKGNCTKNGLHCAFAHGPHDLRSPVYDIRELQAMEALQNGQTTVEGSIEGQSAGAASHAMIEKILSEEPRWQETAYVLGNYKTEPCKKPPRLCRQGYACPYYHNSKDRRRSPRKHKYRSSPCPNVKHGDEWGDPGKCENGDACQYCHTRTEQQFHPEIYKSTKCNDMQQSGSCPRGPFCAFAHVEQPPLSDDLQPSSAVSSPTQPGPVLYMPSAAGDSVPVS
Sequence,bound/input enrichment
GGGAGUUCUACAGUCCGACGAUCGAGAAGAGCAGCAAGAAGAAGACCGAGAAGAAACUUGCUGCUCGGGAAGAAGCUAAAUUGUUGGCGGGUUUCAUGGGCGUCAUGAAUAACAUGCGGAAACAGAAAACGUUGUGUGACGUGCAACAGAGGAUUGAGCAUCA,0.239 ratio
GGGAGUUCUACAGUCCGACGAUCGAUAGGAAAAACUUGUUGGAGACCCGAUUGCACAUCACUGGCAGAGAACUGAGGUCCAAAAUAGCUGAAACCUUUGGACUUCAAGAAAAUUAUAUCAAAAUUGUCAUAAAUAAGAAGCAACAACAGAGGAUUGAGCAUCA,0.695 ratio
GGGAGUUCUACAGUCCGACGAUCUGUCUGCCUCAUUCUAAAAUUUACACAGUAGACCAUUUGUCAUCCAUGCUGUCCCACAGAUAGUUUUUUUGUUUACGAUUUAUGACAGGUUUAUGUUACUUCUAUUUGAAUUUCUAUAUUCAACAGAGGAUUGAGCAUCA,14.4 ratio
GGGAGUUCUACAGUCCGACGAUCUCAUCAAAGAUAUUGUCUGCUGAAAGUUCAUCUAGUACAGAAACUUCGGUGGUCAGCAGUAGUUCAGUUUCUAAUGCCACUUUUUCUGGAACUCCUCCACAGCCUACAAGUCGGAGACAACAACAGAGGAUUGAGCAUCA,0.245 ratio
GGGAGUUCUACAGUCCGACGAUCUACAGAAGGAGCACCUCUCAAACCGUGCUUCAGGCUCUGAGAAAAGGAGCACAGGGGAAAUUAGUCUUGCUUUGGAUCCAAGCAAAUGCUGUCGGAGCAAUGAACUGGGACUUUGUGUGCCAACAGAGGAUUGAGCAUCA,0.157 ratio
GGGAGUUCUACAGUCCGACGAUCUAACUCUAAAAGGGAGGUGCUUGGGAUUAAGGUGACAGUCCACUUGAUCCUUUUCUUUGUUUUAGUGUGAAUUUCAGCAGCUCCAUCUGUCUUCAUGAUUGUACUUGAGCAGUAUUAGCUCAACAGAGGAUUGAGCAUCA,0.243 ratio
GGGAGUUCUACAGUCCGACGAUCGUCAAGGCCAAAACACUAAGAAAACUGAUCCAACAAACAUUUAGACAAUUUGCCAACCUUAAUAGAGAAGAAAGUAUUCUGAAAUUCUUUGAGAUCCUGUCUCCAGUCUACAGAUUUGAUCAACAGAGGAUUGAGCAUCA,5.58 ratio
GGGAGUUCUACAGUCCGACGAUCUCUUUACGAACAUUAACAUCAAUUGUCCACUUGGAGAGAACUCCCAAACUCAGCAGUAUUAUUGACUGUACUGGAACUGCCUCCUACCAUGGAUUUUUGCCAGUGCUUGUAAGGAACUGUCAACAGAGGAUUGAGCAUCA,0.22 ratio
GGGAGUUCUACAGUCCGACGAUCGAUGUAAGUCAAAGACUUGUUACAUAGAGGGAAAAUGGACUGGGAUAGAGGACAGACUGAUAGUUUCUUUCUUUCAUAUCACAUGUAUAGAGAAAUAAUUAUAUCAGAAACUCACAAACCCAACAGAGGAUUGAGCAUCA,0.291 ratio
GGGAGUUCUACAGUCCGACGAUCAGCGUCAUGAAGCCAGCAGUGGCCGUGCUAUCCACAGGCUCUGUCUGCUUCCCACUGAACAGACCCAUUCUAGCUUUCUAUCACUCAAAGAACCAAGGUUUUGGAAAGCUGGCAGUGCUUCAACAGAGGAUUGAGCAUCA,0.0511 ratio
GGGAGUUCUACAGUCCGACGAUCGGGCUGCUGUGCGAGUUCAGUGAUCGAAGGCUUUUGGACAAGUGGGUGGAGCUGAGGACCACAGUGGCCCACUGCAUCUCUGUGAGCCAAGACUACAUCUUCUGUGGCUGUGCUGAUGGCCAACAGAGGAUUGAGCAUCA,0.143 ratio

# Block 3
# Target: Histone acetyltransferase KAT6A, winged helix 2, GST fusion (KAT6A, Homo sapiens, UniProt Q92794, residues 85-181)
# Technique: protein binding microarray
# Form: double-stranded DNA, one strand shown
# Matrix: in vitro
# Tested at: not given
# Setting: 8-mer, flanks averaged, mean of 2 arrays, mostly near background
# Relative to: not given
# Reading: higher = stronger binding
# Residues (chain): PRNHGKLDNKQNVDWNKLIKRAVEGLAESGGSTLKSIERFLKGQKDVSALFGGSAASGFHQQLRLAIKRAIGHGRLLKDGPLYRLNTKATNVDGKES
Sequence,E-score
GATGCGGC,0.199
CTAACGTC,-0.0702
GCATCTAA,0.0431
AGTGGTAG,-0.163
CACAGCCG,0.157
GTGTATCA,0.0489
AGCCTCAC,-0.0266
AATAGCGG,0.0229
AACGGCGT,0.0602
GAATTGGC,-0.162
AATGTAAT,0.015
GAAATGGA,-0.0949
AACTTGCA,0.0104
GAAGAGGC,-0.0372
CGAGAAAC,0.0738
TGTTCCAA,-0.0711
CATAGGTA,-0.0904
GATTTCCC,0.0333
ATGTTACA,0.103
AGCCGTCA,0.0845
ACGTTCTA,-0.152
CCGAATTC,0.0196
GATAAAAA,0.0794
ACGGGAGT,0.0593
ATGGTTCG,-0.0987

# Block 4
# Target: RNA binding protein fox-1 homolog 2, RRM domain, GST-SBP tag (RBFOX2, Homo sapiens, UniProt O43251-10, residues 100-194)
# Technique: RNA Bind-n-Seq
# Form: RNA
# Matrix: in vitro
# Tested at: 365 nM
# Setting: natural RNA segment, single round, ends assumed
# Relative to: no-protein control
# Reading: higher = stronger binding
# Residues (chain): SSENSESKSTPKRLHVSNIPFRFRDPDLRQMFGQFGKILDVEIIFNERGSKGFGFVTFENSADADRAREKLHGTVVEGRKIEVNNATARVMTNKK
Sequence,RBNS enrichment (R)
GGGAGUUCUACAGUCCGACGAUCAUGCCGAGCUCACCCUCAAUGUGGCCUUGGGCAAGGUCUUCACAGGGGGCGCCCUGUAUUUUGGGGGCCUCUUCCAGGCACCCACAGCCCUGACGGAGCCCCUGGAGGUGUGGAAUUCUCGGGUGCCAA,0.209
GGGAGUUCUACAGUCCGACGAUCAUAGCCAGAUAGUUAGAAAAAGAUUUUCAUUGAUGACAUAUCUUUAAACUUUCUUGCAUCAGUAUUCUAAAUUGAGCAAACUGAAAGAUUUUCAUCAGGAAAGGAGCACUUGGAAUUCUCGGGUGCCAA,0.368
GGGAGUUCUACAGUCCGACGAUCUCUUUGGGCUGAAAAAGAAACCCUUUGAUCACAAUCCGGGUGUAGGGACCAAGGCUGGAAAAGUGAUGAAGCUUCCUCCCACUGCUGCAAGAAAAAGGCAGAGGCUUCAGUGGAAUUCUCGGGUGCCAA,1.2
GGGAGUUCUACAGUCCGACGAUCUAUGUAUCUAGCUUGUGCAAAACCCUUAAGUAUGAGGGAUAGGACCCCCACCCAUGGGUUUACAUAUAUUUGGGGCUCAUUAUUUUUUAGCAUUUUCUUUAUCUCCGGAUUGGAAUUCUCGGGUGCCAA,1.2
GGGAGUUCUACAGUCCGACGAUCAAAUUAUGCAGGUGAUAACAUGGUUUGGAACUGUUUAUUGGGCUCUUUAACUGAAUUUUCAAAUGAAAUGAACUAUGCUUAUUGCUGGCACAUUGAUCCCAUUUCUGGAAUGGAAUUCUCGGGUGCCAA,1.42
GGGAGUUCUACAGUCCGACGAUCGCUGCUCCGAGUCCUCCCCUGCAACCAUGAGUUCCACACCAAGUGUGUUGACAAGUGGUUGAAGGCCAACCGGACGUGUCCCAUCUGCCGGGCCGACGCCUCCGAGGUGCUGGAAUUCUCGGGUGCCAA,0.24
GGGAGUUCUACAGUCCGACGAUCCCCUGGUUGUGGGGGAGAGUUCUAGAUCUGUGCCAUGAUCCAUACACUGGCUAAUAGAGUACAUAAUUUUUCCAUUUUCCAUUUUUUGUUUUUACUUACUACUGAAGGAUUGGAAUUCUCGGGUGCCAA,0.553
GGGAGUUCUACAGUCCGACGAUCAUGUCUUGGUUUUGGUUUAAUACCAAAUUUCUCUUGGUCUUGGUUUAAUACCCGACUCCUCCCAAAUUGAACGAUUAUCUUUGUAUGUCACUCAAAAAUACCAGGUUUCCUGGAAUUCUCGGGUGCCAA,0.438
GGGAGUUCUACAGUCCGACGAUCAGGCCGAGACAGGCGGAUCACCUGAGGUCGGGAGUUCGAGACCAGCCUUACCAACAUGGAGAAACCCCAUCUCUACUAAAAAUACAAAAUUACCUGGGCGUGGUGGUGCAUGGAAUUCUCGGGUGCCAA,3.7
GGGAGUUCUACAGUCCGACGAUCUCUUUAAAUUGGGUAUAUGAAAACAUUACCAACUCUUGUUUUUCUAUAAAGAAAUACAGUUAAUAACAAGGUUUCAAAUUAUUCCUUUAACAUUAAUAGAACAAUCCAAAUGGAAUUCUCGGGUGCCAA,0.423
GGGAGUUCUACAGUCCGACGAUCGUUUUUAAUCUGUAUAUACUGUCUGUUUAUAGUGUGGGCAGUGAGUAAGCUGUAGCUUUGAGUUGCAAAGAAGUCACAGGAAAGAACCAUUUGGGUUUCUGAAGUACAAGUGGAAUUCUCGGGUGCCAA,0.701
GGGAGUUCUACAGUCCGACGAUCUGCUUUUUAGUUUUGUAUAUCAGAUGUCUAGCAGGCAUUCAGCUAAUGCAAAAACAGAUUAGUAUGUGUUCAGGUGAACUUUUACUUAAAACAUUAAACUUUGGCUCUCCUGGAAUUCUCGGGUGCCAA,0.236

# Some of these lines once more (block 1):
Substitution,normalised enrichment score
T2G,8.89
T2I,7.39
D12A,7.27
R5Q,1.1
V9H,8.31
